Published values collected from several papers.
Each numbered part is a random draw from the data of one study; scales do not carry over between parts. Substitutions count along the parent as printed.
Chain of UniProt Q02779 (whole entry, looked up): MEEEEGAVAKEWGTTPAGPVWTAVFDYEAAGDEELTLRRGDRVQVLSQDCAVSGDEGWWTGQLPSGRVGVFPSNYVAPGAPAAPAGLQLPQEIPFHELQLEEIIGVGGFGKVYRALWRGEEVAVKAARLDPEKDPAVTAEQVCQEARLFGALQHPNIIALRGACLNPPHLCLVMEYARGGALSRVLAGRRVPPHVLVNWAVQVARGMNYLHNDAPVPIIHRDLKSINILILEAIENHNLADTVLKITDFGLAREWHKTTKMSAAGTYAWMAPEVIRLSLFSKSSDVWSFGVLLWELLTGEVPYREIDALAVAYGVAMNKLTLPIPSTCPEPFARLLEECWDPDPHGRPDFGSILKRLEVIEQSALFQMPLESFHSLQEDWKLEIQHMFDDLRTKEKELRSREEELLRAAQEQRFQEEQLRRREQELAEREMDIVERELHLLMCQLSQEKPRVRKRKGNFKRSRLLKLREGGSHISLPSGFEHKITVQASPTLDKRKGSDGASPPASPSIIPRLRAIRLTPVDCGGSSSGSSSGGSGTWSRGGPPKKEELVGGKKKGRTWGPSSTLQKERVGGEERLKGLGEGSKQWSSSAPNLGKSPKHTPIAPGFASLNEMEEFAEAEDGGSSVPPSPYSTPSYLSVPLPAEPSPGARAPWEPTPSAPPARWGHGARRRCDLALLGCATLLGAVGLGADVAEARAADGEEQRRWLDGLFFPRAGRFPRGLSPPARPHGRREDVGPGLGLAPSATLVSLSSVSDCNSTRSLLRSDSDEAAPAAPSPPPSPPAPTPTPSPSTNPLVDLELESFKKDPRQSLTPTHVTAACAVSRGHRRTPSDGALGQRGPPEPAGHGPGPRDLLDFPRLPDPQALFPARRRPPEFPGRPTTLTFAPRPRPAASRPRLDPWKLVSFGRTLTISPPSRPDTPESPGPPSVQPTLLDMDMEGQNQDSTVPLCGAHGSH

Block 1
Target: UDP-N-acetylglucosamine--peptide N-acetylglucosaminyltransferase 110 kDa subunit (OGT, Homo sapiens, UniProt O15294)
Chain of UniProt O15294 (whole entry, looked up): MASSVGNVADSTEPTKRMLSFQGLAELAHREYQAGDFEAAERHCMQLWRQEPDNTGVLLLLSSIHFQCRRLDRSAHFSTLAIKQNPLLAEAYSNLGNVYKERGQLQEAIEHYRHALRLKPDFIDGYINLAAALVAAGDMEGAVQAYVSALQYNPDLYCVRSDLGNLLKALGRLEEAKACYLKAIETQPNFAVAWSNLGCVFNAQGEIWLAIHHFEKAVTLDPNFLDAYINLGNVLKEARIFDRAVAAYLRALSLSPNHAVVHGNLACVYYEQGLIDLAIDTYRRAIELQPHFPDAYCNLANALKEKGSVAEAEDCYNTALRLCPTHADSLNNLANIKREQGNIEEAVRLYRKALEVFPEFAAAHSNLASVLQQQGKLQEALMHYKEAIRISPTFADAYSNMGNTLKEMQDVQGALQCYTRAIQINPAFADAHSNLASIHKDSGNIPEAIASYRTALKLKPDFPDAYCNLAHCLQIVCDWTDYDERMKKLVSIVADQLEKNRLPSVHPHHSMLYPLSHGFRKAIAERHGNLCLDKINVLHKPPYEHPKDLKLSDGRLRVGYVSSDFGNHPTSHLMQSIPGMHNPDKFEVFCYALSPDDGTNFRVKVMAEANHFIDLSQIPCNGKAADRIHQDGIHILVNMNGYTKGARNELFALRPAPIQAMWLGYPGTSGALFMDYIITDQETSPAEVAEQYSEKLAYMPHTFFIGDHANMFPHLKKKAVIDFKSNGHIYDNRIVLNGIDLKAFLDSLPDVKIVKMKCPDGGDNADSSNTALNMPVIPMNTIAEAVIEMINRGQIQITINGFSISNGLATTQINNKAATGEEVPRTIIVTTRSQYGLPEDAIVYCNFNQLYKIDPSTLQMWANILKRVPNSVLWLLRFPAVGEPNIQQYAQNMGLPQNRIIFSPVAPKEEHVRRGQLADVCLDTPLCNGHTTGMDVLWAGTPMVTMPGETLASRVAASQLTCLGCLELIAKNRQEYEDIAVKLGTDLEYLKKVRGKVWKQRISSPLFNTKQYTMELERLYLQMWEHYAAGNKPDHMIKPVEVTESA
Read-out: binding
Method: phage display NGS
Form: peptide
Reference: input library
| Sequence | minimum log2 enrichment ratio |
| --- | --- |
| QIHQMRHHAPHTRVP | 2.02 |
| WMQHATHDTHNIILV | 3.19 |
| TDRVGTYLPHYQIFF | 3.48 |
| HRHGWQIHLNDGVW | 1.61 |
| HVRGHHHIFTQGAD | 3.25 |
| QQLTQYKPFYQIKPV | 3.47 |
| HRMDHHDHQPHYDAS | 2.64 |
| TVVMTLPHHHHGRGD | 2.5 |

Block 2
Target: CCNB1, cyclin fold, Cln2 fusion (human)
Method: yeast growth competition, sequencing
Matrix: yeast
Setting: weak parent motif
Reference: not given
Direction: higher = stronger binding
Starting sequence: viral docking peptide; PGASRRLFGSSAD
| Variant | normalised enrichment score |
| --- | --- |
| PGASRRLFGSSAA [D13A] | 1.06 |
| PGASKRLLGSSAD [R5K F8L] | 0.203 |
| PGASRRLAGSSAD [F8A] | 0.686 |
| AGASRRLFGSSAD [P1A] | 0.523 |
| PAASRRLFGSSAD [G2A] | 0.808 |
| PGASARAFGSSAD [R5A L7A] | 0.359 |
| PGASRRAFGSSAD [L7A] | 0.251 |

Block 3
Target: vanadate, free oxyanion
Method: microfluidic competitive inhibition
Matrix: in vitro, cell-free expressed
Tested at: not given
Setting: derived from inhibition constants, unchanged parent 676 nM
Direction: lower = stronger binding
Starting sequence: PafA, mature enzyme, eGFP fusion (Elizabethkingia meningoseptica, UniProt Q9KJX5); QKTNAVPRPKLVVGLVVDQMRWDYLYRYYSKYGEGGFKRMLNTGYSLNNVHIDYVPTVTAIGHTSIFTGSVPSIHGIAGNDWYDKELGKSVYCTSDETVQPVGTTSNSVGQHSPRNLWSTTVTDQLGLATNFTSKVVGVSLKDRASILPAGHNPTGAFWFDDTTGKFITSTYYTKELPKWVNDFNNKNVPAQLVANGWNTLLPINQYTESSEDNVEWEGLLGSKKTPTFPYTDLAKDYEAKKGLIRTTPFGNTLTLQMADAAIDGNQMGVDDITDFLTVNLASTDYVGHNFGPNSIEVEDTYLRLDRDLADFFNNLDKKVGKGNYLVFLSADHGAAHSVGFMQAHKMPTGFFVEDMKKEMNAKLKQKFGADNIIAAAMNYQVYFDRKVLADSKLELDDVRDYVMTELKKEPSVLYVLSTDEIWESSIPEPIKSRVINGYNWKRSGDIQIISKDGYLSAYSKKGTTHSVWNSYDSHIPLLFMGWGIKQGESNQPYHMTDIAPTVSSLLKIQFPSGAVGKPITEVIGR
| Variant | oxyanion analog dissociation constant |
| --- | --- |
| D260G | 610 nM |
| I447G | 1.04 µM |
| V416G | 601 nM |
| V137A | 561 nM |
| A376V | 541 nM |
| V516A | 763 nM |
| K432G | 759 nM |
| F352V | 722 nM |

Other studies, line by line
| Structure (SMILES) | target | read-out | mode | tested at | reference | quantity | result |
| --- | --- | --- | --- | --- | --- | --- | --- |
| N/C(=N\[N+](=O)[O-])N/N=C\c1ccc(-c2cccc([N+](=O)[O-])c2)o1 | Mitogen-activated protein kinase kinase kinase 10 (MAP3K10, Homo sapiens, UniProt Q02779) | enzyme activity | inhibitor | 0.5 µM | control | remaining activity | 101% |
